Results gathered from unrelated publications.
Parts stem from different laboratories: compare values within a part only.
Chain of UniProt Q9UQB9 (whole entry, looked up): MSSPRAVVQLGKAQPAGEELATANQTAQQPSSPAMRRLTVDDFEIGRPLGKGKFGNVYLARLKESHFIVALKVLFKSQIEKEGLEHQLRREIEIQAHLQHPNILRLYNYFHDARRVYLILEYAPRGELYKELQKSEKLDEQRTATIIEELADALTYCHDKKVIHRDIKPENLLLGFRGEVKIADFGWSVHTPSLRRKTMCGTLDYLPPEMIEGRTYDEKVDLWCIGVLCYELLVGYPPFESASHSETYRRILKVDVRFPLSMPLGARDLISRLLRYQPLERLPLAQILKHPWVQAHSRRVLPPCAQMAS

Sample 1 — technique: RNA Bind-n-Seq; molecule type: RNA; matrix: in vitro; tested at: not given; relative to: input RNA pool; direction: higher = stronger binding
Target: RING finger protein unkempt homolog, zinc fingers 1-6, GST-SBP tag (UNK, Homo sapiens, UniProt Q9C0B0, residues 30-357)
Chain of UniProt Q9C0B0 (30-357, looked up): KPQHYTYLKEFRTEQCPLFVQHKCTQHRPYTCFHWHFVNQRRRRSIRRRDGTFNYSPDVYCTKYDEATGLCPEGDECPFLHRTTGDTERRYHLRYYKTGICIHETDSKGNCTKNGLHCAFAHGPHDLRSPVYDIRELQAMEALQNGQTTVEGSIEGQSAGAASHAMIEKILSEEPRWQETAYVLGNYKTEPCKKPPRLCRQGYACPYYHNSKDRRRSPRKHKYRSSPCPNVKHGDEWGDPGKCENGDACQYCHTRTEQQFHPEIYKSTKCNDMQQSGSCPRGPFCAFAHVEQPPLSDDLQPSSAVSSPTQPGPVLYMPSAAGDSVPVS
Setting: RNA with constant flanks, human and mouse sites, ends assumed
`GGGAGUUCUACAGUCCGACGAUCGGAGUUUUUUAACUGAUUUAGCCAGGUGGCAAUCAUGAGUGAAUGGAUGAAGAAAGGCCCCUUAGAAUGGCAAGAUUACAUUUACAAAGAGGUCCGAGUGACAGCCAGUGAGAAGAAUGACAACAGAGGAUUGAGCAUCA` has a bound/input enrichment of 0.567 ratio.
For `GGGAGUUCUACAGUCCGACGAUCUGUAACUUUUGUAAAUACACAUAGCAUGUAAUGGUAUCUUAAAGUGUGUUUCUAUGUGACAAUUUUGUACAAAUUUGUUAUUUUCCAUUUUUAUUUCAAAAUAUACAUUCAAACUUAAAACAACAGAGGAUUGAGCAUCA`, the bound/input enrichment was 0.523 ratio.
`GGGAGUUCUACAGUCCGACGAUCAUGACUUCCCGCCUGACACCAUCAGUUACUCCGGUGUAUGCACCUGGGUUCCCUUCAGUUGUAGCUCCAAACUUCAGUUUAGGGGUAGAGCCAAAUUCAUUACAGACUCUGAAGCUAAUGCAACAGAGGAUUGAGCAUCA` gave a bound/input enrichment of 0.244 ratio.
`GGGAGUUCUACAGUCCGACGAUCCGAUUAGUUUAAGCUGUUUCAUGUAUUUUACUUUAAACCUUAUUUUGGCAACUUAUCUUGUUAGCAUUAUAAAAACUUACUUAAAAUACUAUUUUACUACAAAACAAAACAUUUAUUACACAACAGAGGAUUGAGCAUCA` gave a bound/input enrichment of 4.6 ratio.
`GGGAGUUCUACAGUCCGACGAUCCAAAGUAUGGGAUUUGCGCAAGAAUUACACUGCUUAUCGACAAGAACCCAUAGCAUCCAAGUCUUUCCUGUACCCAGGUACCAGCACUCGAAAGCUAGGAUACUCGAGUUUGGUUUUAGACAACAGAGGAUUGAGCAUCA` has a bound/input enrichment of 0.398 ratio.
`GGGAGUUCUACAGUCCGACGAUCCCACUUCGUAGUGUUUUGGAACAAACCAAGUUAAAGAAAGAAGAUAUUUAUGCAGUGGAGAUAGUUGGUGGUGCUACACGAAUCCCUGCGGUAAAAGAGAAGAUCAGCAAAUUUUUCGGUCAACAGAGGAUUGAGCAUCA` has a bound/input enrichment of 0.558 ratio.
With `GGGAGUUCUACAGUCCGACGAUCAAGGAUGCUUUCGAUAAAGGUUCACUUUUUGGAGGCUCUGUAAAACUGGCUCUUGCAAGCUUAGGAUAUGAAAAGAGCUGUGUGUUGUUCAAUUGUGCAGCCUUAGCUAGCCAAAUUGCACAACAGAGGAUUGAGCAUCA` the bound/input enrichment was 0.627 ratio.
With `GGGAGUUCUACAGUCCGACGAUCGAGCCUACUCUGGUUAAGAUGUUCUUUUCCUCAAAGGUGCCCUAGUGCCAUGAUUUAAAUAUUUUUAUUACCAUUUUGAAAUGGAGAAGCCAUUCUGCAUAUGCCUUUGAAUUCCUGCCCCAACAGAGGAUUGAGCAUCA` the bound/input enrichment was 2.23 ratio.

Sample 2 — technique: RNA Bind-n-Seq; molecule type: RNA; matrix: in vitro; tested at: not given; setting: 4-mer, random 30-nt RNA, single round; together with: RocA, ADP, phosphate; relative to: input library; direction: higher = stronger binding
Target: Eukaryotic initiation factor 4A-I (EIF4A1, Homo sapiens, UniProt P60842, residues 1-406, full length assumed)
Chain of UniProt P60842 (whole entry, looked up): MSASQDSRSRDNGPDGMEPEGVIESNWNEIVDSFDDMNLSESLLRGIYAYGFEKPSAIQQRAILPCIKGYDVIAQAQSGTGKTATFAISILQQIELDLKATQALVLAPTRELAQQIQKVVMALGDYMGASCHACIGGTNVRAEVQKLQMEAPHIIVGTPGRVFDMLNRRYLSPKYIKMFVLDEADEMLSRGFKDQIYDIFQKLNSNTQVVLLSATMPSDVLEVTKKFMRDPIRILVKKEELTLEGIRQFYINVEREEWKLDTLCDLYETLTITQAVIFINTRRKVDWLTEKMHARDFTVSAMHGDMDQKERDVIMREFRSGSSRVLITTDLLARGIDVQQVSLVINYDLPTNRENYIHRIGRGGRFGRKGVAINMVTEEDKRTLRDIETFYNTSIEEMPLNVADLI
For `GUUG`, the 4-mer enrichment was 1.22 fold.
With `GUCG` the 4-mer enrichment was 0.903 fold.
For `GCCC`, the 4-mer enrichment was 0.637 fold.
With `UCUA` the 4-mer enrichment was 0.621 fold.
`UAUG` gave a 4-mer enrichment of 1.04 fold.
The 4-mer enrichment of `UAAA` is reported as 1.05 fold.
`AAGC` has a 4-mer enrichment of 0.925 fold.
The 4-mer enrichment of `CUGU` is reported as 0.684 fold.

Sample 3 — technique: protein binding microarray; molecule type: double-stranded DNA, one strand shown; matrix: in vitro; tested at: not given; relative to: not given; direction: higher = stronger binding
Target: Histone acetyltransferase KAT6A, winged helix 2, GST fusion (KAT6A, Homo sapiens, UniProt Q92794, residues 85-181)
Setting: 8-mer, flanks averaged, mean of 2 arrays, mostly near background
Residues (chain): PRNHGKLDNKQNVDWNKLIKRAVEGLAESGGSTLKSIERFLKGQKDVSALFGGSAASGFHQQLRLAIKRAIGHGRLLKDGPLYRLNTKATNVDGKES
The E-score of `AAAGGGTT` is reported as -0.129.
The E-score of `ATTGTACG` is reported as -0.137.
For `GCTTATCA`, the E-score was 0.00825.
The E-score of `GAAAGAGC` is reported as -0.129.
The E-score of `CAGATAGC` is reported as 0.00571.
The E-score of `AGACTAGA` is reported as -0.275.
For `CTCGTCGC`, the E-score was -0.0252.
The E-score of `TGATACAA` is reported as 0.0318.

Further values, each from its own experiment
`Cc1c(C(=O)O)cc(-c2ccc(C3CCNCC3)cc2)c2ccc(-c3ccc(C(F)(F)F)cc3)cc12` has a remaining binding of 92% (Aurora kinase C (AURKC, Homo sapiens, UniProt Q9UQB9); binding, competition with immobilised ligand; 1 µM).

Repeated from above (further values, each from its own experiment):
`Cc1c(C(=O)O)cc(-c2ccc(C3CCNCC3)cc2)c2ccc(-c3ccc(C(F)(F)F)cc3)cc12` has a remaining binding of 92% (Aurora kinase C (AURKC, Homo sapiens, UniProt Q9UQB9); binding, competition with immobilised ligand; 1 µM).
